Experimental data collected from several papers.
Protocols differ between the studies behind these lines. “And” joins repeats or separate records; there may be more than shown. ± marks the error that the study gave.

SMILES | cell line | assay | system | setting | IC50
CC(C)C12OC1C1OC13C1(C)CCC4=C(COC4=O)C1CC1OC13C2OC(=O)CCCOC1OC(CO)C(O)C(O)C1O (centres unmarked) | primary normal human cells | cell viability, XTT | – | – | 6.8 µM
CCOc1ccc(Br)cc1/C=N/NC(=O)CCl | AMO1 | cell growth or viability | – | – | 0.0789 µM
CC(=O)N[C@H](C(=O)N[C@@H](CCCNC(=N)N)C(=O)N[C@@H](CCCCN)C(=O)N[C@@H](CCCNC(=N)N)C(=O)N[C@H](C(=O)N[C@@H](CC(C)C)C(=O)N[C@@H](CCCNC(=N)N)C(=O)N[C@]1(C)CCCC=CCCC[C@@](C)(C(=O)N[C@@H](CCC(=O)O)C(=O)N[C@@H](CCCNC(=N)N)C(=O)N[C@@H](CCC(=O)O)C(=O)N[C@@H](CC(C)C)C(=O)N[C@H](C(=O)N[C@@H](CCC(=O)O)C(N)=O)C(C)C)NC(=O)[C@H](CC(C)C)NC(=O)[C@H](CC(C)C)NC1=O)[C@@H](C)O)C(C)C | H1975 (EGFR L858R/T790M) | cell viability, ATP luminescence | – | 18 h | > 100 µM
Cc1ccccc1/C=C/C(=O)N[C@@H]1C(=O)N[C@@H](Cc2ccccc2)C(=O)N[C@H](CC(C)C)C(=O)N[C@@H](C(C)C)C(=O)N[C@@H](C)C(=O)N[C@H](CCC(N)=O)C(=O)NCC(=O)N2CCC[C@H]2C(=O)N[C@@H](CCCNC(=N)N)C(=O)N[C@H](Cc2ccccc2)C(=O)O[C@H]1C | HCT-116 | – | – | – | > 20 µM
Cc1cc(C)cc(COc2cc3c(cc2OCc2cc(C)cc(C)c2)C2CC(O)(Cc4cn(CCOCCOCCOCCNc5ccc6c(c5)C(=O)N(C5CCC(=O)NC5=O)C6=O)nn4)CC(C)N2CC3)c1 (racemic) | ASPC1 | cell growth or viability, MTT | – | – | 2.41 µM
Cc1ccc(C(C)C)cc1.Cc1ccc(C(C)C)cc1.Cc1ccc(C(C)C)cc1.Cc1ccc(C(C)C)cc1.O=S(=O)(O)C(F)(F)F.O=S(=O)(O)C(F)(F)F.O=S(=O)(O)C(F)(F)F.O=S(=O)(O)C(F)(F)F.c1ccc2c3c4ccccc4c(c2c1)-c1cn(nn1)-c1cc[n+](cc1)[Ru-]1[O]c2ccc4c5c(ccc(c25)=[O+]1)=[O+][Ru-]([O]4)[n+]1ccc(cc1)-n1cc(nn1)-c1c2ccccc2c(c2ccccc12)-c1cn(nn1)-c1cc[n+](cc1)[Ru-]1[O]c2ccc4c5c(ccc(c25)=[O+]1)=[O+][Ru-]([O]4)[n+]1ccc(cc1)-n1cc-3nn1 | AGS | cell growth, MTT | – | 24 h, 20 µM preincubated in medium 48 h at 37 °C | 13.6 ± 0.11 µM
COc1ccccc1-c1ccncc1C(=O)Nc1nnc(OCc2ccc(Cl)cc2)s1 | Brca1 wild-type MEFs | colony survival | – | – | ~12 µM
CCOc1ccccc1-n1c(CN2CCNCC2)nc2ccccc2c1=O | SK-MES-1 | cell growth or viability | – | 72 h | 0.334 µM
CC(=O)N[C@H](C(=O)N[C@@H](CCCNC(=N)N)C(=O)N[C@@H](CCCCN)C(=O)N[C@@H](CCCNC(=N)N)C(=O)N[C@]1(C)CCCCCCC=CCCC[C@@](C)(C(=O)N[C@@H](CCCNC(=N)N)C(=O)N[C@@H](CCC(=O)O)C(=O)N[C@@H](CC(C)C)C(=O)N[C@H](C(=O)N[C@@H](CCC(=O)O)C(N)=O)C(C)C)NC(=O)[C@H](CCC(N)=O)NC(=O)[C@H](CC(C)C)NC(=O)[C@H](CC(C)C)NC(=O)[C@H](CCCNC(=N)N)NC(=O)[C@H](CCCNC(=N)N)NC(=O)[C@H](CC(C)C)NC1=O)C(C)C | H2030, wild-type EGFR | – | – | – | 1.67 µM and 2.17 µM
Cc1cc(Nc2nc(C[C@@]3(C(=O)O)CCN(Cc4cccc(Cl)c4F)[C@H](C)C3)cc(C)c2F)[nH]n1 | KM 12L4 | cell growth or viability, ATP luminescence | – | 5 days | 0.0636 µM
CC(=O)N[C@H](C(=O)N[C@@H](CCCNC(=N)N)C(=O)N[C@@H](CCCCN)C(=O)N[C@@H](CCCNC(=N)N)C(=O)N[C@H](C(=O)N[C@@H](CC(C)C)C(=O)N[C@@H](CCCNC(=N)N)C(=O)N[C@]1(C)CCCCCCC=CCCC[C@@](C)(C(=O)N[C@H](C(=O)N[C@@H](CCC(=O)O)C(N)=O)C(C)C)NC(=O)[C@H](CCC(=O)O)NC(=O)[C@H](CCCNC(=N)N)NC(=O)[C@H](CCC(=O)O)NC(=O)[C@H](CCC(N)=O)NC(=O)[C@H](CC(C)C)NC(=O)[C@H](CC(C)C)NC1=O)[C@@H](C)O)C(C)C | H2030 (wild-type EGFR) | cell viability, ATP luminescence | – | 18 h | > 100 µM
CC(=O)N[C@H](C(=O)N[C@@H](CCCNC(=N)N)C(=O)N[C@@H](CCCCN)C(=O)N[C@@H](CCCNC(=N)N)C(=O)N[C@H](C(=O)N[C@@H](CC(C)C)C(=O)N[C@@H](CCCNC(=N)N)C(=O)N[C@]1(C)CCCC=CCCC[C@@](C)(C(=O)N[C@@H](CCC(=O)O)C(=O)N[C@@H](CCCNC(=N)N)C(=O)N[C@@H](CCC(=O)O)C(=O)N[C@@H](CC(C)C)C(=O)N[C@H](C(=O)N[C@@H](CCC(=O)O)C(N)=O)C(C)C)NC(=O)[C@H](CC(C)C)NC(=O)[C@H](CC(C)C)NC1=O)[C@@H](C)O)C(C)C | H2030, wild-type EGFR | – | – | – | > 100 µM
CC(C)C12OC1C1OC13C1(C)CCC4=C(COC4=O)C1CC1OC13C2OC(=O)CCC(=O)OC1OC(CO)C(O)C(O)C1O (centres unmarked) | SK-MEL3 | cell growth or viability, XTT | – | 47 h | 0.42 µM
CC(=O)N[C@H](C(=O)N[C@@H](CCCNC(=N)N)C(=O)N[C@@H](CCCCN)C(=O)N[C@@H](CCCNC(=N)N)C(=O)N[C@H](C(=O)N[C@@]1(C)CCCC=CCCC[C@@](C)(C(=O)N[C@@H](CCC(N)=O)C(=O)N[C@@H](CCC(=O)O)C(=O)N[C@@H](CCCNC(=N)N)C(=O)N[C@@H](CCC(=O)O)C(=O)N[C@@H](CC(C)C)C(=O)N[C@H](C(=O)N[C@@H](CCC(=O)O)C(N)=O)C(C)C)NC(=O)[C@H](CC(C)C)NC(=O)[C@H](CCCNC(=N)N)NC(=O)[C@H](CCCNC(=N)N)NC1=O)[C@@H](C)O)C(C)C | SK-N-MC (no EGFR or ErbB2-4) | cell viability, ATP luminescence | – | 18 h | > 10 µM
COc1ccc(CN2CCN(Cc3ccccc3)CC2)c(O)c1 | CHO | cytotoxicity, MTT | – | – | > 50 µM
COc1ccc(CC(=O)N2CCN(CC(OCc3ccc4ccccc4c3)c3ccc(Cl)cc3Cl)CC2)cc1 (centres unmarked) | MDA-MB-468 | cell growth or viability, MTT | – | 24 h | 21.1 µM
CCC1=C(C)C2=C(c3ccc(C(=O)NCCNC(=O)c4ccc(P(=NC(=O)c5ccccn5)(c5ccccc5)c5ccccc5)cc4)cc3)c3c(C)c(CC)c(C)n3[B-](F)(F)[N+]2=C1C | MCF-10A | cell viability, MTT | – | 72 h, 0.1% DMSO | not toxic
Cc1cc(Oc2nc(N3CC[C@@H](c4ccncc4)C3)ncc2F)[nH]n1 | Ramos | cell proliferation | blood cancer | – | 40.7 µM
O=C(O)c1ccc([S][Au][PH](c2ccccc2)(c2ccccc2)[c-]2cccc2)cc1.[Fe+2].c1cc[cH-]c1 | renal proximal tubule cells | cytotoxicity, XTT | – | 24 h | 3.91 ± 0.61 µM
CC(=O)N[C@H](C(=O)N[C@@H](CCCNC(=N)N)C(=O)N[C@@H](CCCCN)C(=O)N[C@@H](CCCNC(=N)N)C(=O)N[C@H](C(=O)N[C@@H](CC(C)C)C(=O)N[C@@H](CCCNC(=N)N)C(=O)N[C@@]1(C)CCCC=CCCC[C@@](C)(C(=O)N[C@@H](CCCNC(=N)N)C(=O)N[C@@H](CCC(=O)O)C(=O)N[C@@H](CC(C)C)C(=O)N[C@H](C(=O)N[C@@H](CCC(=O)O)C(N)=O)C(C)C)NC(=O)[C@H](CCC(N)=O)NC(=O)[C@H](CC(C)C)NC(=O)[C@H](CC(C)C)NC1=O)[C@@H](C)O)C(C)C | SK-N-MC (no EGFR or ErbB2-4) | cell viability, ATP luminescence | – | 18 h | > 10 µM
CC[C@H](C)[C@@H]1NC(=O)[C@@H]2CCCN2C(=O)[C@H](C)NC(=O)[C@H](CC(C)C)NC(=O)[C@@H]2CCCN2C(=O)[C@H](C)NC(=O)[C@@H]2CSSC[C@H](NC(=O)[C@H](C)NC(=O)[C@H](C)NC(=O)[C@H](Cc3ccc(O)cc3)NC(=O)[C@@H]3CCCN3C(=O)CNC(=O)[C@H](Cc3c[nH]c4ccccc34)NC1=O)C(=O)N[C@@H](CC(C)C)C(=O)N[C@@H](CO)C(=O)N[C@@H](C)C(=O)N[C@H]1CSSC[C@H](NC(=O)[C@H](C(C)C)NC(=O)[C@@H]3CCCN3C(=O)CNC(=O)CNC(=O)CNC(=O)[C@H](C)NC(=O)[C@H](C)NC(=O)[C@H](CC(C)C)NC1=O)C(=O)N[C@@H](CC(C)C)C(=O)N[C@@H](C)C(=O)N[C@@H](C(C)C)C(=O)N2 | U-87 MG | cell growth | – | – | > 128 µg/mL
CC(=O)N[C@H](C(=O)N[C@@H](CCCNC(=N)N)C(=O)N[C@@H](CCCCN)C(=O)N[C@@H](CCCNC(=N)N)C(=O)N[C@]1(C)CCCCCCC=CCCC[C@@](C)(C(=O)N[C@@H](CCCNC(=N)N)C(=O)N[C@@H](CCC(=O)O)C(=O)N[C@@H](CC(C)C)C(=O)N[C@H](C(=O)N[C@@H](CCC(=O)O)C(N)=O)C(C)C)NC(=O)[C@H](CCC(N)=O)NC(=O)[C@H](CC(C)C)NC(=O)[C@H](CC(C)C)NC(=O)[C@H](CCCNC(=N)N)NC(=O)[C@H](CCCNC(=N)N)NC(=O)[C@H](CC(C)C)NC1=O)C(C)C | SK-N-MC (no EGFR or ErbB2-4) | cell viability, ATP luminescence | – | 18 h | ~10 µM
N[C@H](C(=O)N1CCCC1)C1CCN(c2nccc3c(-c4ncc(Cl)cc4Cl)cccc23)CC1 | human isolated neutrophils | histone H3 citrullination, inhibitor, flow cytometry, measured: citrullinated histone H3 | – | added: ionomycin | 1.04 µM

Repeated from above:
SMILES | cell line | assay | system | setting | IC50
CC(=O)N[C@H](C(=O)N[C@@H](CCCNC(=N)N)C(=O)N[C@@H](CCCCN)C(=O)N[C@@H](CCCNC(=N)N)C(=O)N[C@H](C(=O)N[C@@H](CC(C)C)C(=O)N[C@@H](CCCNC(=N)N)C(=O)N[C@]1(C)CCCC=CCCC[C@@](C)(C(=O)N[C@@H](CCC(=O)O)C(=O)N[C@@H](CCCNC(=N)N)C(=O)N[C@@H](CCC(=O)O)C(=O)N[C@@H](CC(C)C)C(=O)N[C@H](C(=O)N[C@@H](CCC(=O)O)C(N)=O)C(C)C)NC(=O)[C@H](CC(C)C)NC(=O)[C@H](CC(C)C)NC1=O)[C@@H](C)O)C(C)C | H1975 (EGFR L858R/T790M) | cell viability, ATP luminescence | – | 18 h | > 100 µM
Cc1ccccc1/C=C/C(=O)N[C@@H]1C(=O)N[C@@H](Cc2ccccc2)C(=O)N[C@H](CC(C)C)C(=O)N[C@@H](C(C)C)C(=O)N[C@@H](C)C(=O)N[C@H](CCC(N)=O)C(=O)NCC(=O)N2CCC[C@H]2C(=O)N[C@@H](CCCNC(=N)N)C(=O)N[C@H](Cc2ccccc2)C(=O)O[C@H]1C | HCT-116 | – | – | – | > 20 µM
